Published values of several laboratories.
Numbered parts are unrelated; each lists some results of a single study.

Study 1
Target: Histone acetyltransferase KAT6A, both winged helices, GST fusion (KAT6A, Homo sapiens, UniProt Q92794, residues 1-181)
Technique: protein binding microarray
Form: double-stranded DNA, one strand shown
Sample: in vitro
Tested at: not given
Setting: 8-mer, flanks averaged, mean of 2 arrays, mostly near background
Baseline: not given
Direction: higher = stronger binding
Residues (chain): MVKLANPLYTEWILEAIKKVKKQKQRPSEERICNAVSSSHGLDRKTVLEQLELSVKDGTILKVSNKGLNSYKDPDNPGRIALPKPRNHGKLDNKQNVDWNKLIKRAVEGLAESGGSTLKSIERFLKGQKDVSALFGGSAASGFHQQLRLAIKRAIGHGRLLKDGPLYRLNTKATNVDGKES
Oligonucleotide | E-score
AACAAGCA | -0.0839
CCTTGGTC | -0.0876
GCCTATCC | -0.0587

Study 2
Molecule: PhoQ, residues 284 288 289 292 302 303 SLGVVW
Technique: Sort-seq
Refers to: YFP reporter
Sample: E. coli
Setting: PhoQ-PhoP variant library
Together with: 10 µM Mg2+
Baseline: high Mg2+ state
Direction: higher = stronger signaling
target | fold induction
PhoP, residues 12 14 15 18 19 NYFRM (Escherichia coli, UniProt P23836) | 16.8
PhoP, residues 12 14 15 18 19 QYFSL (Escherichia coli, UniProt P23836) | 5.08
PhoP, residues 12 14 15 18 19 TQALL (Escherichia coli, UniProt P23836) | 7.66

Study 3
Target: Interferon regulatory factor 7, full length, phosphomimetic (IRF7, Homo sapiens, UniProt Q92985, residues 1-503, S471D/S472D/S475D/S476D/S477D/S483D/S484D/S487D)
Sequence of UniProt Q92985 (whole entry, unmodified, looked up): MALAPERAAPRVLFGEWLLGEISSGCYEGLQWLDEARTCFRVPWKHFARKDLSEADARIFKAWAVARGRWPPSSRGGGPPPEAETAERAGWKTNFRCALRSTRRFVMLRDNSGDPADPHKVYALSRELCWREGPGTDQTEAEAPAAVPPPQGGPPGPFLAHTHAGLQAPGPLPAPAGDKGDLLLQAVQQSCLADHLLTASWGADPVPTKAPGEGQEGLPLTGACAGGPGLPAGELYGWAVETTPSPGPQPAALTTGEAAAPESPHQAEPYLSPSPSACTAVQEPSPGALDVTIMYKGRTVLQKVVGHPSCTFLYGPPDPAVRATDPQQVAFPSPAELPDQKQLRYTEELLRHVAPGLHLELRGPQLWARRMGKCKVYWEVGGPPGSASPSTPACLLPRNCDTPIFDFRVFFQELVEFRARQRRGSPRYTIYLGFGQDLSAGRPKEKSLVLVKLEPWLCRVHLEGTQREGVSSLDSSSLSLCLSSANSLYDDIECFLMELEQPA
Technique: protein-binding microarray
Form: double-stranded DNA, one strand shown
Sample: in vitro
Tested at: 2200 nM top
Setting: 60-bp whole probe
Together with: salmon DNA 0.4 mg/ml
Baseline: random background probes
Direction: higher = stronger binding
Oligonucleotide | fitted relative affinity
GCCTAGCACTTACATTTTAATTTTATTTGGTGCTAGGTCTTGATTCGCTTGACGCTGCTG | 1.54 z-score
GCCTAGCACGTAGGACTGGGGTATCGGTTAGTGCTAGTCTTGATTCGCTTGACGCTGCTG | -0.777 z-score
GCCTAGCACTTAGGTCTCGGTTTCGGTAAGTGCTAGGTCTTGATTCGCTTGACGCTGCTG | 3.86 z-score
GCCTAGCACTTAGGTATTGACTTTCGGTTAGTGCTAGTCTTGATTCGCTTGACGCTGCTG | 5.95 z-score

Study 4
Target: Sal-like protein 4, full length isoform A (SALL4, Homo sapiens, UniProt Q9UJQ4, residues 1-1053)
Sequence of UniProt Q9UJQ4 (whole entry, looked up): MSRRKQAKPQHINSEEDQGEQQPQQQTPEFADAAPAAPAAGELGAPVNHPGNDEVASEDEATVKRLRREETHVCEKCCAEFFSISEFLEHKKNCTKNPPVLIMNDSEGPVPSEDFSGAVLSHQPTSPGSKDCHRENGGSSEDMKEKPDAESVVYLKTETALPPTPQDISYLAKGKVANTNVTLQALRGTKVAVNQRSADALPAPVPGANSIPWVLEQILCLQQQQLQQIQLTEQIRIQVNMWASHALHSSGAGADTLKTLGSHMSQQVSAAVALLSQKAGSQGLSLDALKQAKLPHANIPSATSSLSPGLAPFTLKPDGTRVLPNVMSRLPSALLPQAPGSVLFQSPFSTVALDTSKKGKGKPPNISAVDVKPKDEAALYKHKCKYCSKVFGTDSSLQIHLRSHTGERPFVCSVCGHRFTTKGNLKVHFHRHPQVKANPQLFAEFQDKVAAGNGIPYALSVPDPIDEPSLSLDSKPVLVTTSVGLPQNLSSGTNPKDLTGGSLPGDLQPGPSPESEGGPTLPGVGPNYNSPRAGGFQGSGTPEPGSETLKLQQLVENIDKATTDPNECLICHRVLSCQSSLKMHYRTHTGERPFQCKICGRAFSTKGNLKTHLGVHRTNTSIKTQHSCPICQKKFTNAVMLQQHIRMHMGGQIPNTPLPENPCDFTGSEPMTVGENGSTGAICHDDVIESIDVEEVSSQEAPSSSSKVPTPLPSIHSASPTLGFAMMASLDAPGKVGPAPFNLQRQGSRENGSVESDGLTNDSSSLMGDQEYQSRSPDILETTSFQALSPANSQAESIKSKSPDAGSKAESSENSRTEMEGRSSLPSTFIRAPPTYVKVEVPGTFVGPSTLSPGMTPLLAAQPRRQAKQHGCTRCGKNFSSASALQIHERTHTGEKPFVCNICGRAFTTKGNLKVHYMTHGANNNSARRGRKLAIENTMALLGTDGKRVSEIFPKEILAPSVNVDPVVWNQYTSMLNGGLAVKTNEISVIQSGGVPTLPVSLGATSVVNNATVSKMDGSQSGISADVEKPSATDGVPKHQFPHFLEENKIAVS
Technique: universal PBM
Form: double-stranded DNA, one strand shown
Sample: in vitro
Tested at: 600 nM
Setting: 8-mer, flanks averaged, mean of replicates
Direction: higher = stronger binding
Oligonucleotide | E-score
CGTGGTAC | -0.134
CAGTCACA | 0.0351
TAGATCTA | 0.276

Some of these lines once more (study 3):
Oligonucleotide | fitted relative affinity
GCCTAGCACGTAGGACTGGGGTATCGGTTAGTGCTAGTCTTGATTCGCTTGACGCTGCTG | -0.777 z-score
GCCTAGCACTTAGGTCTCGGTTTCGGTAAGTGCTAGGTCTTGATTCGCTTGACGCTGCTG | 3.86 z-score
